# Measurements of several laboratories.
# A part holds a random share of what one study measured. Changes are numbered by the printed parent chain.

# Set 1 — method: protein-binding microarray; molecule type: double-stranded DNA, one strand shown; sample: in vitro; concentration: 250 nM; notes: 60-bp whole probe; together with: salmon DNA 0.4 mg/ml; relative to: random background probes; reading: higher = stronger binding; shared flanks, not repeated: GCCTAGCAC … GTCTTGATTCGCTTGACGCTGCTG
# Target: Interferon regulatory factor 5, full length, phosphomimetic (IRF5, Homo sapiens, UniProt Q13568-2, residues 1-514, K96S/S451D/S453D/S456D/S462D)
Strand,log fluorescence
CATATTCTCTTCTTGCATCTGTGCTAG,0.799 z-score
GATAATTTTTTTCTAAGTAAGTGCTAG,1.2 z-score
GACGGTATCGCGTTTCGGGACGTGCTA,1.67 z-score
GACGATATCAGTTTAGAGACGTGCTAG,1.66 z-score
TGAGATATCGGGTTTCGATTAGTGCTA,7.22 z-score
ACTAGTTTCCATTTTCAGAAGTGCTAG,2.95 z-score
TTAGGTATCGGTTATCGGTTAGTGCTA,8.53 z-score

# Set 2 — method: RNA Bind-n-Seq; molecule type: RNA; sample: in vitro; concentration: 20 nM; notes: 6-mer, flanks averaged, single round; together with: 150 mM KCl; relative to: input library; reading: higher = stronger binding
# Target: TAR DNA-binding protein 43, full length, His tag (TARDBP, Homo sapiens, UniProt Q13148, residues 1-414)
Strand,6-mer enrichment (R)
UAUAUU,0.635
GGGCCU,1.9
GUACGU,0.883
UACAGU,0.625
AUUUGU,0.693
UGUAGU,0.889

# Set 3 — target: CCNB1, cyclin fold, Cln2 fusion (human); method: yeast growth competition, sequencing; sample: yeast; notes: weak parent motif; relative to: not given; reading: higher = stronger binding
# Parent: CDC25A docking peptide (human); PPHRRRLLFACSP
Variant,normalised enrichment score
PPHWRRLLFACSP [R4W],0.621
PPWRRRLLFACSP [H3W],1.59
PPHRRRLLFAPSP [C11P],0.369
PPHRRRLLFDCSP [A10D],0.672
PPHQRRLLFACSP [R4Q],0.915
PPHRRRLLPACSP [F9P],0.351
PPHRRRQLFACSP [L7Q],0.258
PPHRRRLLFACCP [S12C],0.504

# Single results of other studies
Substance,target,test,test system,conditions,how to read,endpoint,value
"PhoQ, residues 284 288 289 292 302 303 SSTLSG","PhoP, residues 12 14 15 18 19 STHWV (Escherichia coli, UniProt P23836)","Sort-seq, refers to: YFP reporter",E. coli,"PhoQ-PhoP variant library, together with: 10 µM Mg2+","relative to: high Mg2+ state, higher = stronger signaling",fold induction,15.7

# Excerpt of the above (set 2):
Strand,6-mer enrichment (R)
GUACGU,0.883
UGUAGU,0.889
UAUAUU,0.635
